Results of several laboratories.
Numbered parts are unrelated; each lists some results of a single study. Values joined by “and” are separate records of one study, mostly repeats; a detail may differ.
Sequence of UniProt P42336 (whole entry, unmodified, looked up): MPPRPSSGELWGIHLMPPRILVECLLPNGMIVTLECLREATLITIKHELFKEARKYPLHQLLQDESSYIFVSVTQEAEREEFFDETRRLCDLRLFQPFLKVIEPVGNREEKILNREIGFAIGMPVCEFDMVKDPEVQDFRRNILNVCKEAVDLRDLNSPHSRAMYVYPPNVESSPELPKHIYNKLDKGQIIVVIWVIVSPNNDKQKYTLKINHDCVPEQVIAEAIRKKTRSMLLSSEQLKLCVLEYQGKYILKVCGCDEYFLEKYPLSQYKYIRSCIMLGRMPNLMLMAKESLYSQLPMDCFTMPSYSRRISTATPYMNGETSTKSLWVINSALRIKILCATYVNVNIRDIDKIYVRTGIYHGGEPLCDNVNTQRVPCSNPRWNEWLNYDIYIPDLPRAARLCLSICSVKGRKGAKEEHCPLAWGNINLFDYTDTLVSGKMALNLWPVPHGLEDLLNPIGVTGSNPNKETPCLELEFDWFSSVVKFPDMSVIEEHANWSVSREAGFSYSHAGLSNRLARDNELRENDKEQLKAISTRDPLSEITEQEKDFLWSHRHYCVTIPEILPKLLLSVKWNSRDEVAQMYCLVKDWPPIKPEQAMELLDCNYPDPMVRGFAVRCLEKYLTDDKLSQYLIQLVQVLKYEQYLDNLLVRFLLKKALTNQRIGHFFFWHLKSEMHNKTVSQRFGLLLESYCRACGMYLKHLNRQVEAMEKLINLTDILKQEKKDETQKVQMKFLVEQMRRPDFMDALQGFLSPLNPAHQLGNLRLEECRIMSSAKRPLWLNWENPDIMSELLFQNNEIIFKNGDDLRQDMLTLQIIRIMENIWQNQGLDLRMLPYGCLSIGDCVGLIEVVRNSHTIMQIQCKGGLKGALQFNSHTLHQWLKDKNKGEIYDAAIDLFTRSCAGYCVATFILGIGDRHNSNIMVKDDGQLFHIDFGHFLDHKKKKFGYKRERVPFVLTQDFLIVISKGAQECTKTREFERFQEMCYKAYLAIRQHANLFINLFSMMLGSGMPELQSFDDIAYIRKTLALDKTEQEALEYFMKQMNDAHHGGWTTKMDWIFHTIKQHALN
Sequence of UniProt P37173 (whole entry, looked up): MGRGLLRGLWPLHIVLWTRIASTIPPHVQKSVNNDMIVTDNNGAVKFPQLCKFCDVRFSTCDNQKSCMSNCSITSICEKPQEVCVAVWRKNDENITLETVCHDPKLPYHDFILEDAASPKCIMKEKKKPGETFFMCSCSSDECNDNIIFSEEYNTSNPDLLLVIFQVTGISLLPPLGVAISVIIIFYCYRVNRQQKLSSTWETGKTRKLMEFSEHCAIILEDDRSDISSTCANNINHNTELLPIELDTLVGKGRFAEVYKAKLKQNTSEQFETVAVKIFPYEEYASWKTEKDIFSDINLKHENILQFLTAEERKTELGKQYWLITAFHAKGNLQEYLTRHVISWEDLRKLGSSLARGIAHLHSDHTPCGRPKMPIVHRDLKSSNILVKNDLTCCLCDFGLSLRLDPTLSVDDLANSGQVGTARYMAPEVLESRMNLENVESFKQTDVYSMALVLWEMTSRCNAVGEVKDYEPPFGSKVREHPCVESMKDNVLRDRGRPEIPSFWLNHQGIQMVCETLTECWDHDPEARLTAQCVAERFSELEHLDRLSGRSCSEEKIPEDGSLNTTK
Sequence of UniProt P54646 (whole entry, looked up): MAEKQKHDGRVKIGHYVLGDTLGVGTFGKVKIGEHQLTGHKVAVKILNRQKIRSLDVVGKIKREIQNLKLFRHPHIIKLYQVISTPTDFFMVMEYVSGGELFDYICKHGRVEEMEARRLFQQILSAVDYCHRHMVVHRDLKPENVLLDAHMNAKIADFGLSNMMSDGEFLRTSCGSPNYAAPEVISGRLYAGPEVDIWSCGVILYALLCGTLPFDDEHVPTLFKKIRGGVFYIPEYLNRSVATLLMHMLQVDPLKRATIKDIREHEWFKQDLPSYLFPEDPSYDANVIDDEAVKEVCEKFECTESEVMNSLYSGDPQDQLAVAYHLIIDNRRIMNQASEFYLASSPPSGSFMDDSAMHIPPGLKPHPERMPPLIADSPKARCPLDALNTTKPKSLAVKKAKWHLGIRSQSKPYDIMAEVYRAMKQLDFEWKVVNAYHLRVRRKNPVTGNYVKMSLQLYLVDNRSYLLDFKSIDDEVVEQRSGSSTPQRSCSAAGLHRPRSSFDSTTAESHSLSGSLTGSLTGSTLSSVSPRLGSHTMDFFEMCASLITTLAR
Sequence of UniProt O60674 (whole entry, looked up): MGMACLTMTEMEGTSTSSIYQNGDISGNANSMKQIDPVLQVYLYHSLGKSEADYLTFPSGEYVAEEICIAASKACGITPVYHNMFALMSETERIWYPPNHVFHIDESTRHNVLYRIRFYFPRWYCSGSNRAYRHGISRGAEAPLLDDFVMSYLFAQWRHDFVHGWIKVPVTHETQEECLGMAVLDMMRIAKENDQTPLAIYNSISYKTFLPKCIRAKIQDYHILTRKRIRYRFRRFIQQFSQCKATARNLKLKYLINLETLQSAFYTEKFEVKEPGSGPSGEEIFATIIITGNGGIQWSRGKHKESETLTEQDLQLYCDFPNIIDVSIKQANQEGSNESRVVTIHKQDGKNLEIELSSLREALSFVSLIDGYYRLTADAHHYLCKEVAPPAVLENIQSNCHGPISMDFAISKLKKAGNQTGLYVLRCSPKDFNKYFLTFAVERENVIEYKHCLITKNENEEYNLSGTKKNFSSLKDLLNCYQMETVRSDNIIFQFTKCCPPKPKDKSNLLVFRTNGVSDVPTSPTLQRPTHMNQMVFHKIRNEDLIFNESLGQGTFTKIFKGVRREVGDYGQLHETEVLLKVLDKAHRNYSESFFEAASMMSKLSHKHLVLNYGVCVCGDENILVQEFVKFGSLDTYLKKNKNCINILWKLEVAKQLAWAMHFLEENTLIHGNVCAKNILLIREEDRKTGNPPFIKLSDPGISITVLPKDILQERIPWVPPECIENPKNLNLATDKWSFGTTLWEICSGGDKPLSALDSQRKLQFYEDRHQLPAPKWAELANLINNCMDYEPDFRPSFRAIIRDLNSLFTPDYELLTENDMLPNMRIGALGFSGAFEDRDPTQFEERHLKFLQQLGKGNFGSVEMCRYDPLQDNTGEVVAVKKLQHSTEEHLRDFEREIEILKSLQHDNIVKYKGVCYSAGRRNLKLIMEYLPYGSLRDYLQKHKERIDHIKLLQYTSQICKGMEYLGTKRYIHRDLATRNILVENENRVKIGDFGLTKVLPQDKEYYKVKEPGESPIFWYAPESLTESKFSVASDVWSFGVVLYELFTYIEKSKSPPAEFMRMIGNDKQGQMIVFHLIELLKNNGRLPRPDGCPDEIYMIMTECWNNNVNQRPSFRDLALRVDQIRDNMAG

Series 1
Compound: CN(c1ccnc(CNc2nc(Nc3ccc4c(c3)CC(=O)N4)ncc2C(F)(F)F)n1)S(C)(=O)=O
Observed: cell-free assay
Technique: competition with immobilised ligand
Tested at: 1 µM
PRKAA2 (Homo sapiens, UniProt P54646) — remaining binding: 87%.
For PIK3CA (Homo sapiens, UniProt P42336, C420R): remaining binding read 91%.
TGFBR2 (Homo sapiens, UniProt P37173) — remaining binding: 100%.
The remaining binding was 3.8% (Tyrosine-protein kinase JAK2, JH1 (JAK2, Homo sapiens, UniProt O60674)).
It gave 11% for remaining binding (Tyrosine-protein kinase ABL1, phosphorylated (ABL1, Homo sapiens, UniProt P00519, T315I)).

Series 2
SMILES: COc1cc(C(=O)N2CCC(N3CCN(C)CC3)CC2)ccc1Nc1ncc2c(n1)N(C)c1ccccc1C(=O)N2C
mouse MAP3K5/MAP3K6/MAP3K7; probe labelling, KiNativ ATP probe; mouse brain lysate; 0.1 µM, LYS1 site IAIkEIPER — inhibition: -4.3%.
The inhibition was 18.2% (human PBMC; probe labeling, inhibitor, KiNativ profiling; cell lysate; concentration not given, LYS1 site, with: ATP acyl-phosphate probe 1 µM).
The inhibition was 13.5% (PIP5K3 human; KiNativ profiling; human PBMC; 1 µM, ATP site, with: ADP acyl phosphate probe).
The inhibition was 8.7% (CaMKK1 (mouse); probe labelling, KiNativ, measured: Lys1 site peptide; brain tissue lysate (mouse); 0.1 µM, with: ADP acyl-phosphate probe).
It gave 9.1% for inhibition (TLK1 and TLK2 (human); probe labelling, KiNativ, measured: Lys2 site peptide; PBMC lysate (human); 0.1 µM, with: ATP acyl-phosphate probe).
MAP3K3 (human); probe labelling, KiNativ ADP probe; human PBMC lysate; concentration not given, LYS1 labelled site — inhibition: -5.3%.
mouse FER; probe labelling, KiNativ ATP probe; mouse brain lysate; 1 µM, activation loop site — inhibition: -20.4%.

Series 3
Target: Protein kinase C theta type (PRKCQ, Homo sapiens, UniProt Q04759)
Sequence of UniProt Q04759 (whole entry, looked up): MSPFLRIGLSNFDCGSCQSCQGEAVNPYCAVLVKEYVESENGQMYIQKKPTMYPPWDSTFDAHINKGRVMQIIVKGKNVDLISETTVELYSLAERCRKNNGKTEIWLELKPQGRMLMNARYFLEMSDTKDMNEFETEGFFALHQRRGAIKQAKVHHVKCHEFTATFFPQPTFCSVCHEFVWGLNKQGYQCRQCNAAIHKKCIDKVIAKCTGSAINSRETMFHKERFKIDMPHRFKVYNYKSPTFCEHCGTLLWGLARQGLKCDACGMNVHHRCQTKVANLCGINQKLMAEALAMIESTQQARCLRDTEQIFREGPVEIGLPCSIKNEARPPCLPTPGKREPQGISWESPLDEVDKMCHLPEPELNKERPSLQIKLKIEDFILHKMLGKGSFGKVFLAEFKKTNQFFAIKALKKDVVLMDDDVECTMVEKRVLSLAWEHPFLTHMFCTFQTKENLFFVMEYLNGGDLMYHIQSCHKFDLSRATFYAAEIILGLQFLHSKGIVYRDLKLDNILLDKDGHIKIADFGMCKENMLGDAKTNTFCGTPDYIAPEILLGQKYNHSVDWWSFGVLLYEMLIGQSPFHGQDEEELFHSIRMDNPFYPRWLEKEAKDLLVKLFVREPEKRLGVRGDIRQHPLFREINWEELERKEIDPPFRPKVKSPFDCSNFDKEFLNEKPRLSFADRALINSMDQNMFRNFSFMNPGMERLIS
Observed: enzyme activity
Mode: inhibitor
Tested at: 0.5 µM
Relative to: control
`Nc1[nH]nc2nc3ccccc3nc12` gave a remaining activity of 89.7%.
For `O=c1c2ccccc2[nH]c(=S)n1CCN1CCC(=C(c2ccc(F)cc2)c2ccc(F)cc2)CC1`, the remaining activity was 92.2%.
For `Cc1ccc(NC(=O)c2ccc(CN3CCN(C)CC3)cc2)cc1Nc1nc(-c2cccnc2)cs1`, the remaining activity was 103%.
For `COc1cc2ncnc(Nc3ccc(F)c(Cl)c3)c2cc1OCCCN1CCOCC1`, the remaining activity was 85.9%.
`CC(C)[C@H](CO)Nc1nc(Nc2cc(N)cc(Cl)c2)c2ncn(C(C)C)c2n1` gave a remaining activity of 119%.
`Nc1ncnc2n[nH]c(Nc3ccc(F)cc3)c12` has a remaining activity of 103%.
The remaining activity of `COc1ccc(CNC(=O)Nc2ncc([N+](=O)[O-])s2)cc1` is reported as 96.9%.
With `O=C(CCCc1ccc(-c2ccccc2F)cc1)Nc1ccc(O)cc1` the remaining activity was 107%.
For `CNC(=O)c1cc(Oc2ccc(NC(=O)Nc3ccc(Cl)c(C(F)(F)F)c3)cc2)ccn1`, the remaining activity was 100%.
`Nc1ccc2ncnc(NCCc3ccc(Oc4ccccc4)cc3)c2c1` has a remaining activity of 108%.
`COc1ccc(C(=O)Nc2sc3c(c2C(N)=O)CCCC3)cc1OC` has a remaining activity of 97.5%.
For `NCCNc1ncc(C(N)=O)c(Nc2cccc(C(F)(F)F)c2)n1`, the remaining activity was 109%.
With `Oc1ccc(-c2nc(-c3ccncc3)c(-c3ccc(F)cc3)[nH]2)cc1` the remaining activity was 115%.
With `Cc1ccc(Nc2nccc(N(C)c3ccc4c(C)n(C)nc4c3)n2)cc1S(N)(=O)=O` the remaining activity was 93.1%.
The remaining activity of `O=C1NC(=O)C(c2cn(CCCO)c3ncccc23)=C1c1cnccn1` is reported as 81.7%.
With `O=C1NC(=O)C(c2cn(CCCn3ccnc3)c3ccccc23)=C1Nc1ccccc1` the remaining activity was 37.2%.

Series 4
Species: mouse
Matrix: microsomes or S9
Tested at: 2 µM
Time: 0.5 h
For `Cc1cc2n(CCNC(=O)COc3ccc(F)cc3)ccn2n1`, the remaining compound was 47.7%.
The remaining compound of `CC1CC(C)CC(NC(=O)c2coc(CS(C)(=O)=O)n2)C1` (stereo not shown) is reported as 69.3%.
With `Cc1cc([S+]([O-])c2ccccc2)c(C)n1S(=O)(=O)c1ccccc1` (stereo not shown) the remaining compound was 2.25%.
The remaining compound of `O=C(Cn1ncc2ccccc2c1=O)NCCn1nc2c(cc1=O)CCCCC2` is reported as 7.31%.
For `Cc1nc2c(cc1-c1ccccc1)[nH]c(=O)n2Cc1ccc(-c2cc(CC(C)C)sc2S(=O)(=O)NC(C)(C)C)cc1`, the remaining compound was 17.7%.
`Cc1cn2c(CNc3ncnc4c3cnn4C)c(C)nc2s1` has a remaining compound of 0.127%.
`CCOC(=O)C1CCN(c2nc(C)cc(Cl)n2)CC1` gave a remaining compound of 0.00274%.
With `O=C(Nc1n[nH]c(Cc2ccc(F)cc2)n1)c1ccn2nnnc2c1` the remaining compound was 43.3%.

Single results of other studies
`O=C1CCC(N2Cc3cc(C4CCN(Cc5ccccc5)CC4)ccc3C2=O)C(=O)N1` (stereo not shown) has a Vss of 13.1 L/kg and 10.4 L/kg (rat Sprague Dawley male, plasma; intravenous, 1.0 mg/kg).

For quick reference, copied from above (series 2):
The inhibition was 13.5% (PIP5K3 human; KiNativ profiling; human PBMC; 1 µM, ATP site, with: ADP acyl phosphate probe).
mouse FER; probe labelling, KiNativ ATP probe; mouse brain lysate; 1 µM, activation loop site — inhibition: -20.4%.
The inhibition was 18.2% (human PBMC; probe labeling, inhibitor, KiNativ profiling; cell lysate; concentration not given, LYS1 site, with: ATP acyl-phosphate probe 1 µM).
The inhibition was 8.7% (CaMKK1 (mouse); probe labelling, KiNativ, measured: Lys1 site peptide; brain tissue lysate (mouse); 0.1 µM, with: ADP acyl-phosphate probe).
It gave 9.1% for inhibition (TLK1 and TLK2 (human); probe labelling, KiNativ, measured: Lys2 site peptide; PBMC lysate (human); 0.1 µM, with: ATP acyl-phosphate probe).
MAP3K3 (human); probe labelling, KiNativ ADP probe; human PBMC lysate; concentration not given, LYS1 labelled site — inhibition: -5.3%.
